Literature values that unrelated publications cite.
Compare with care: the assays were run in different laboratories.
UniProt P25103, sequence (whole entry, looked up): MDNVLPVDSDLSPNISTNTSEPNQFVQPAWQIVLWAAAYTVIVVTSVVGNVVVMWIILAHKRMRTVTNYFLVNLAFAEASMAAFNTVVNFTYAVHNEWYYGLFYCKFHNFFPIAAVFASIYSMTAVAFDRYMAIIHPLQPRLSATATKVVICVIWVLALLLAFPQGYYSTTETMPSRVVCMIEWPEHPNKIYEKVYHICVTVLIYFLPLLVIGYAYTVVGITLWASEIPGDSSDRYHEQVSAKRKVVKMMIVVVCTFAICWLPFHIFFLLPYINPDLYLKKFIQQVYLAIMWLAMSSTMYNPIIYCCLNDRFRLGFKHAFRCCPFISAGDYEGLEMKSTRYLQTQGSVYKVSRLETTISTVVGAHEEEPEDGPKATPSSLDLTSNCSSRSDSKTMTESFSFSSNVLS

| Substance | target or system | assay | test system | conditions | measurement | result |
| --- | --- | --- | --- | --- | --- | --- |
| LNTVATLY | HLA class I histocompatibility antigen, B alpha chain, allele B*39:01 (Homo sapiens, UniProt P01889) | peptide-MHC binding | peptide |  | IC50 | > 20000 nM |
| O=C(O)C1=CCCN(CCON=C(c2ccccc2)c2ccccc2)C1 | Sodium- and chloride-dependent GABA transporter 1 (Slc6a1, Rattus norvegicus, UniProt P23978) | inhibitor |  | historical measurement | IC50 | 200 nM |
| QPQEQVPL | HLA class I histocompatibility antigen, B alpha chain, allele B*51:01 (Homo sapiens, UniProt P01889) | peptide-MHC binding | peptide |  | IC50 | 41 nM |
| C#Cc1ccc2c(c1)C(c1ccccc1F)=N[C@H](C)c1c(C(=O)OCC)ncn1-2 | rat brain GABA-A receptors | binding |  |  | IC50 | 379 nM |
| WAKRRPATF | HLA class I histocompatibility antigen, B alpha chain, allele B*08:02 (Homo sapiens, UniProt P01889) | peptide-MHC binding | peptide |  | IC50 | 29 nM |
| Ic1ccccc1CN[C@@H]1C2CCN(CC2)[C@@H]1C(c1ccccc1)c1ccccc1 (racemic) | Substance-P receptor (TACR1, Homo sapiens, UniProt P25103) |  |  |  | Ki | 2.6 nM |
| COc1ccc([C@@H]2CC(=O)c3c(cc(O)c(CC=C(C)C)c3O)O2)cc1 | HeLa | cell growth |  |  | IC50 | ~10000 nM |
| FLGRIWPS | HLA class I histocompatibility antigen, B alpha chain, allele B*15:09 (Homo sapiens, UniProt P01889) | peptide-MHC binding | peptide |  | IC50 | > 20000 nM |

Some of these lines once more:
| Substance | target or system | assay | test system | conditions | measurement | result |
| --- | --- | --- | --- | --- | --- | --- |
| FLGRIWPS | HLA class I histocompatibility antigen, B alpha chain, allele B*15:09 (Homo sapiens, UniProt P01889) | peptide-MHC binding | peptide |  | IC50 | > 20000 nM |
